Assay results of several laboratories.
Protocols differ between the studies behind these lines.

Structure (SMILES)	test	test system	conditions	quantity	value
COc1cc2nccc(Oc3ccc(NC(=O)c4cc5c(n(-c6ccccc6)c4=O)CCCC5=O)nc3)c2cc1OC		patients with relapsed/refractory AML	oral, 3 mg once daily	TEAEs leading to death	10%
COc1cc2c(Oc3ccc4[nH]c(C)cc4c3F)ccnc2cc1OCC1(N)CC1		paediatric recurrent refractory sarcoma	12 mg	Epistaxis incidence	18.2%
COc1ccc2nc3cc(Cl)ccc3c(Nc3cc(CN4CCCC4)c(O)c(CN4CCCC4)c3)c2n1		mouse, blood	intraperitoneal, 14 mg/kg	platelet distribution width	15.5%
CCc1ccc(CC/C=C/c2ccc3c(c2)C(=O)CC3)cc1		Sprague-Dawley rat, male, serum	oral, 30 mg/kg/day, 14 days	creatinine	23.3 µM
CN1CC[C@@H](c2c(O)cc(O)c3c(=O)cc(-c4ccc(C(F)(F)F)cc4Cl)oc23)[C@@H]1CO	measured: Hypoalbuminemia	relapsed B-cell malignancies	oral, 100 mg, grade 3-4, intermittent dosing	patients with adverse event	0%
CC(C)(C(=O)NC1C2CC3CC1CC(C(N)=O)(C3)C2)N1CCN(c2ccc(C(F)(F)F)cn2)CC1 (stereo not shown)		human, plasma	2 mg once daily, 5 days, median	dose-normalised free AUC(0-24)	1.6 (ng·h/mL)/mg
Cn1cncc1-c1c(F)cncc1NC(=O)c1c(N)nn2cc(F)cnc12		human patients	oral, 270 mg once daily	grade ≥3 platelet decrease incidence	25%
C[C@]1(CO)Cc2ncn(-c3ccc(C#N)c(Cl)c3)c2C(=O)O1		human	3 mg multiple doses, fasted	subjects with drug-related fatigue	0%
CO[C@H]1C[C@@H]2CC[C@@H](C)[C@@](O)(O2)C(=O)C(=O)N2CCCC[C@H]2C(=O)O[C@H]([C@H](C)C[C@@H]2CC[C@@H](OC(=O)NCCOCCOCCOCCOCCOCCOCCOCCOCCC(=O)N3CCc4cc(Cn5nc(-c6ccc7oc(N)nc7c6)c6c(N)ncnc65)ccc4C3)[C@H](OC)C2)C[C@@H](O)[C@H](C)/C=C(\C)[C@@H](O)[C@@H](OC)C(=O)[C@H](C)C[C@H](C)/C=C/C=C/C=C/1C	phase 1 dose escalation	advanced solid tumour patients	intravenous, 10 mg weekly, grade ≥3	any TEAE incidence	75%
Cc1cc(C)c(CNC(=O)c2cc(Cl)c3c(c2C)O[C@@](C)([C@H]2CC[C@H](N(C)C)CC2)O3)c(=O)[nH]1		human, relapsed/refractory NHL	concentration not given, treatment-related TEAEs, grade 5	Arthralgia incidence	0%
CCCCCCCCCCC[C@H](OC1OC[C@H](O)[C@@H](O)[C@@H]1O)[C@H](O)[C@H](O)C[C@@H]1CC(=O)N[C@H](CO)C(=O)N[C@H]([C@H](O)c2ccc(O)cc2)C(=O)N[C@H](CCN)C(=O)NCC(=O)N[C@@H](CC(N)=O)C(=O)N[C@@H](CO)C(=O)N[C@@H]([C@H](O)C(N)=O)C(=O)N1 (stereo partly shown)	LC-MS/MS	rabbit plasma, sodium citrate	200 ng/mL, 3 freeze-thaw cycles, stored at -80°C	measured concentration	169 ng/mL
C=CC(=O)Nc1cc(Nc2nccc(Nc3cc(Cl)c(F)cc3C(C)(C)O)n2)c(OC)cc1N1CC[C@@H](N(C)C)C1		human	oral, dose not given	blood creatinine increased TEAE	18.6%
O=C(Nc1ccccc1)C1CCN(C(=O)Oc2cccnc2)CC1	adverse event reporting	healthy women	oral, 100 mg, 9 days	subjects with sleep disorder	0%
